{"data": "Assay results collected from several papers", "note": "Each numbered part is a random draw from the data of one study; scales do not carry over between parts."}
{"data": "Study 1", "target": "Ras GTPase-activating protein-binding protein 1, full length (G3BP1, Homo sapiens, UniProt Q13283)", "method": "RNA Bind-n-Seq", "molecule type": "RNA", "matrix": "in vitro", "tested at": "200 nM", "setting": "whole 134-nt RNA, ends assumed", "together with": "150 mM LiCl", "relative to": "input library", "direction": "higher = stronger binding", "all molecules": "7-deaza-guanosine replaces G", "UniProt Q13283, sequence (whole entry, looked up)": "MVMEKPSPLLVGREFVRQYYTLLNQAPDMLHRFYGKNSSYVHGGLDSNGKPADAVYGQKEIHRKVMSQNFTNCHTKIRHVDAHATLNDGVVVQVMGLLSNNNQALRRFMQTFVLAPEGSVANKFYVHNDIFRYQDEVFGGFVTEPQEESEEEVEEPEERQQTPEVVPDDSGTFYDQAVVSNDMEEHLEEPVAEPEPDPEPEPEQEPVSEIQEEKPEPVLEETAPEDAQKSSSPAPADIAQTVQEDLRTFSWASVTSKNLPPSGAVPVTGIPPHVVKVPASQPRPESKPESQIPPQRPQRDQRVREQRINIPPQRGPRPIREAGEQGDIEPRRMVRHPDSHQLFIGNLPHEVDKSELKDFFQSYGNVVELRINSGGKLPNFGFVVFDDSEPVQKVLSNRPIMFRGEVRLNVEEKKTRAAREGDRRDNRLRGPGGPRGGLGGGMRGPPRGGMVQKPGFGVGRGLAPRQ"}
{"Strand": "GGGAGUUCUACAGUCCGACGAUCUGGCCCUGGUGGCAUGCGGGGAGGAAGAGGUGGCCUCAUGGAUCGUGGUGGUCCCGGUGGAAUGUUCAGAGGUGGGCGUGGUGGAGACAGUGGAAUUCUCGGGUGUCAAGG", "log2 enrichment": -0.227}
{"Strand": "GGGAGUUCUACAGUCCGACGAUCAGUCCUGUGCUACACAUCGUAUGUACCGAAUCGGGGAGGGGAAAAAAAGGGGAGGGGAAAGUAUUAUGUUACGCCGUUCGGAUCUGCACUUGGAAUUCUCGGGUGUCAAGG", "log2 enrichment": 0.116}
{"Strand": "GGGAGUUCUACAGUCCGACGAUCUUCCGCCUCUUUCCGGAGUACAAGAACAACAAACUUUUCCUGACCGGGGAGAGCUAUGCUGGCAUCUACAUCCCCACCCUGGCCGUGCUGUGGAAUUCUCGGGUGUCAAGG", "log2 enrichment": 1.21}
{"Strand": "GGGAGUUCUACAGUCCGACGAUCCAAGUCCUGUGCUACACAUCGUAUGUACCGAAUCGGGAGGGAAAAAGGGAAAGGGAAAGUAUUAUGUUACGCCGUUCGGAUCUGCACUUCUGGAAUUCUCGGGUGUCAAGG", "log2 enrichment": -0.0265}
{"Strand": "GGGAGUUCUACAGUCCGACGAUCCAAGUCCUGUGCUACACAUCGUAUGUACCGAAUCGGAAAAGGAAAAGGGAAAAGGAAAGUAUUAUGUUACGCCGUUCGGAUCUGCACUUCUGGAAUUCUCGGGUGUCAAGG", "log2 enrichment": -0.557}
{"Strand": "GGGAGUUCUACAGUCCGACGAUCGCAGGAAGUAAAAACAAAUGGAAAUGCUACGGAUAGUGGCAGGGGUGGGGGUUGCUAAGGAAAGGGUGGGAUGGGAGUGGGUAAAGAGUUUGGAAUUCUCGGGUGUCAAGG", "log2 enrichment": 0.227}
{"Strand": "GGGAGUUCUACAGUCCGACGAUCAAGUCCUGUGCUACACAUCGUAUGUACCGAAUCGGGGCCCGGGGCCCGGGGCCCGGGAAAGUAUUAUGUUACGCCGUUCGGAUCUGCACUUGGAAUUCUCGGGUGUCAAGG", "log2 enrichment": -0.259}
{"Strand": "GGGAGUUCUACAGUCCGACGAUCCUGUGCUACACAUCGUAUGUACCGAAUCGGGAAAAAAAGGGAAAAAAAGGGAAAAAAAGGGAAAGUAUUAUGUUACGCCGUUCGGAUCUGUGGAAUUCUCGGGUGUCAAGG", "log2 enrichment": 0.102}
{"Strand": "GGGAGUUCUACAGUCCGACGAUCAGUCCUGUGCUACACAUCGUAUGUACCGAAUCGGGAAAGGGAAAAAGGGAAAAAGGGAAAGUAUUAUGUUACGCCGUUCGGAUCUGCACUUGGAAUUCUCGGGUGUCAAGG", "log2 enrichment": -0.453}
{"Strand": "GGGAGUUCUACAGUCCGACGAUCCUCAAGUCCUGUGCUACACAUCGUAUGUACCGAAUCGGAGGAAAAAAAGGUGGAAAGUAUUAUGUUACGCCGUUCGGAUCUGCACUUCCAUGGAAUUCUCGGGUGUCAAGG", "log2 enrichment": -1.49}
{"Strand": "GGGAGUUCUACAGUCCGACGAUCUCCUGUGCUACACAUCGUAUGUACCGAAUCGGGGUUUUUGGGGUUUUUGGGGUUUUUGGAAAGUAUUAUGUUACGCCGUUCGGAUCUGCAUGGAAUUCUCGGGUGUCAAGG", "log2 enrichment": 1.08}
{"data": "Study 2", "target": "Histone acetyltransferase KAT6A, both winged helices, GST fusion (KAT6A, Homo sapiens, UniProt Q92794, residues 1-181)", "method": "protein binding microarray", "molecule type": "double-stranded DNA, one strand shown", "matrix": "in vitro", "tested at": "not given", "setting": "8-mer, flanks averaged, mean of 2 arrays, mostly near background", "relative to": "not given", "direction": "higher = stronger binding", "Target sequence (chain)": "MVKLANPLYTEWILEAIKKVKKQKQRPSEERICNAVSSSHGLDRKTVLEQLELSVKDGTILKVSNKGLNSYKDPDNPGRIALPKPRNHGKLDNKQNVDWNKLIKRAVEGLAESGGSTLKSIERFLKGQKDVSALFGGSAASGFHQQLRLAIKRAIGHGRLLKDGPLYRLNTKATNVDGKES"}
{"Strand": "GACTTTAA", "E-score": -0.197}
{"Strand": "CGTGTGTC", "E-score": 0.0912}
{"Strand": "AACCGAAG", "E-score": -0.00543}
{"Strand": "AGTTAGAA", "E-score": -0.0908}
{"Strand": "GATTCGTA", "E-score": 0.103}
{"Strand": "CTATCGAA", "E-score": 0.0742}
{"Strand": "CGAGTATC", "E-score": 0.0317}
{"Strand": "GGTCTTAC", "E-score": 0.123}
{"Strand": "AACTTCAG", "E-score": -0.0766}
{"Strand": "AGAAAGGA", "E-score": -0.0801}
{"Strand": "ACATTGGT", "E-score": -0.215}
{"Strand": "GCAAGCAA", "E-score": 0.072}
{"Strand": "GTGTCGAA", "E-score": -0.0799}
{"Strand": "CAAGTAAC", "E-score": -0.0834}
{"Strand": "CGTGCGAC", "E-score": 0.185}
{"Strand": "AACGTTAG", "E-score": 0.0835}
{"Strand": "ACTTAGGG", "E-score": -0.206}
{"Strand": "AACATCAG", "E-score": -0.135}
{"Strand": "AAAGTCTG", "E-score": -0.185}
{"Strand": "AAACCGTG", "E-score": 0.0584}
{"data": "Study 3", "target": "RNA binding protein fox-1 homolog 2, RRM domain, GST-SBP tag (RBFOX2, Homo sapiens, UniProt O43251-10, residues 100-194)", "method": "RNA Bind-n-Seq", "molecule type": "RNA", "matrix": "in vitro", "tested at": "365 nM", "setting": "natural RNA segment, single round, ends assumed", "relative to": "no-protein control", "direction": "higher = stronger binding", "Construct (chain)": "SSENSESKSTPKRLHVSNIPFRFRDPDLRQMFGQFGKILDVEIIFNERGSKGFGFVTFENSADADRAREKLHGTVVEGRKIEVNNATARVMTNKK"}
{"Strand": "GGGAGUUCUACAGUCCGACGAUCCAACCUCCUUCUUAUCUGUGAUAAAUCUAUAGAAAGAAUUUAGCUGCAAGUGGACAAAGGAACAAGCCCCCAGAAAAGAAAGGGAAGAACUGCCUUCUUAUACUACAGAAUGGAAUUCUCGGGUGCCAA", "RBNS enrichment (R)": 0.752}
{"Strand": "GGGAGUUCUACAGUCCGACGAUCAGCCACCCAUCCUAAGGAGGCAAGCACUUGGCCUCUUUGAGUGAGACUUGGCUUUAGGACUCUCUGCAUCAGCCUUGUGUGCAUCAGGCACUGGAAAGCCUCUGUCUUCCUGGAAUUCUCGGGUGCCAA", "RBNS enrichment (R)": 14.8}
{"Strand": "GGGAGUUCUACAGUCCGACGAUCUAAAACUUGGUUUAUUCUAAUUUCUGUAUCAUAUCAUCUGAGGUUUACGUGGUAACUAGUCUUAUAACAUGUAUGUAUCUUUUUUUUGUUGUUCAUCUAAAGCUUUUUAAUGGAAUUCUCGGGUGCCAA", "RBNS enrichment (R)": 1.2}
{"Strand": "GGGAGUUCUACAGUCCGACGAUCUCCCACUAUACCUGAGCACCGGGAGCUUCCAGAGCACGCCUGCCUCCCUCCCUCUAGUCUGCAUGUGUGCAAGGAUGUCAGACAGUCUCGACUUAGGAUGGACAGACACAUGGAAUUCUCGGGUGCCAA", "RBNS enrichment (R)": 4.52}
{"Strand": "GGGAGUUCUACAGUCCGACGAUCAGAGGGGGCCUUGGCCACCAACAGUUCCAAACCAGGUCAGCUGUUAGCCGUCUCAUUGGCCAGUGGCAGCAUGGGCAGUGCCCAUUGCCCACAGAACGGUGGAGAGAGGGUGGAAUUCUCGGGUGCCAA", "RBNS enrichment (R)": 0.351}
{"Strand": "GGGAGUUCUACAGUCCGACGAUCUUCUUUGUGUCAACAUGAACAAAUUUUAUUUGUAGGGGAACUCAUUUGGGGUGCAAAUGCUAAUGUCAAACUUGAGUCACAAAGAACAUGUAGAAAACAAAAUGGAUAAAUGGAAUUCUCGGGUGCCAA", "RBNS enrichment (R)": 0.871}
{"Strand": "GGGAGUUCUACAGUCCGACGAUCAAACAAGAAAACUUUGCUUCAAAGAUCUCAUGUGUGGGAACCACAGCGCCUGGUUGCCUUUCUCCUGUGUAUGUGUAAAUUCCUUAAUAAAUAUUGCAGGGAAAGACCCUUGGAAUUCUCGGGUGCCAA", "RBNS enrichment (R)": 0.429}
{"Strand": "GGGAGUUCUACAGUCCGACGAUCUUGUACAUUUUGUUUAAUAAAAGAUUAAAGAAUUUAUGAAGUUGGCUUGGACAAGUUUAAAUCCAUUUUUAAUGUGUUAAAUUUUUUUUGGAAUAAAUGUAUUCAUCUUCUGGAAUUCUCGGGUGCCAA", "RBNS enrichment (R)": 1.2}
{"Strand": "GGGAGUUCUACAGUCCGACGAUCUGCUUGAUUCAAAACUGUGGAAACCAGAUCUGUUUAGUCUCCUGUUUGUAUGCGUUUGCUAAUGGUAGCUAAAUAACCAGUUUUUGUUGUAAAUGCACCAAUUCUGAAGGUGGAAUUCUCGGGUGCCAA", "RBNS enrichment (R)": 1.18}
{"Strand": "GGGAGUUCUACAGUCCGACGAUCCACAAGAAGAGAAACAGUAACCUCACUUUGAAAAUUAGCUCCACUCAAGACUAGUCCACGAACGAGACCCGCCUUUUCUACACAGGAUCCAAGGUCACGAGAAGCAGCCAUGGAAUUCUCGGGUGCCAA", "RBNS enrichment (R)": 0.34}
{"Strand": "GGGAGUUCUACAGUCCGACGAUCUCUCCCCAUGGCCUCUUCCCCACCUCUGAUUGCUGGUUGUGGCCCCAUAGCUCAUCACCCCUGUCUCCUGCUGAAUGUGCAGGGCUGAUGUGGCACUGAGGAGCUGACUUUGGAAUUCUCGGGUGCCAA", "RBNS enrichment (R)": 0.864}
{"Strand": "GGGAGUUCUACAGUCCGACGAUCGAUCUAAAGCCUUUUUAUCCCAUAUCCCAAAUUCUUAUGAGCCACUCACAGCAGGCAGCAUAUGUUGAAAUAAGUUAUUACUGGUACACACCUGCAUUGCCUCACCAGUGUGGAAUUCUCGGGUGCCAA", "RBNS enrichment (R)": 1.1}
{"data": "Study 4", "target": "Prothrombin, mature alpha-thrombin (F2, Homo sapiens, UniProt P00734)", "method": "aptamer microarray, sandwich", "molecule type": "DNA with 2'F-ANA", "matrix": "in vitro", "tested at": "200 nM", "setting": "whole 15-mer aptamer, many near background", "together with": "Cy3 exosite-II aptamer, 400 nM", "direction": "higher = stronger binding", "strand": "GGTTGGTGTGGTTGG"}
{"Modification": "2'F-ANA at 2 3 7 8 9 10 11 12 13 14 15", "mean fluorescence intensity": "238 a.u."}
{"Modification": "2'F-ANA at 3 4 5 8 9 10 13 14 15", "mean fluorescence intensity": "59.6 a.u."}
{"Modification": "2'F-ANA at 1 2 3 7 8 9 11 12", "mean fluorescence intensity": "430 a.u."}
{"Modification": "2'F-ANA at 5 6 7 9 10 11 13 14 15", "mean fluorescence intensity": "49.5 a.u."}
{"Modification": "2'F-ANA at 5 10 11 12 13 14", "mean fluorescence intensity": "48.9 a.u."}
{"Modification": "2'F-ANA at 2 3 5 7 8 10 11 13 14 15", "mean fluorescence intensity": "50.3 a.u."}
{"Modification": "2'F-ANA at 5 6 7 12 14 15", "mean fluorescence intensity": "46.1 a.u."}
{"Modification": "2'F-ANA at 1 2 5 7 9 10 11 12 13 15", "mean fluorescence intensity": "69 a.u."}
{"Modification": "2'F-ANA at 1 2 5 6 8 10 11 13", "mean fluorescence intensity": "51.4 a.u."}
{"Modification": "2'F-ANA at 5 6 10 12 15", "mean fluorescence intensity": "49.3 a.u."}
{"Modification": "2'F-ANA at 1 4 6 9 10 13 14", "mean fluorescence intensity": "45.4 a.u."}
{"Modification": "2'F-ANA at 1 2 3 4 5 6 8 9 10 12 13 14 15", "mean fluorescence intensity": "49 a.u."}
{"Modification": "2'F-ANA at 2 3 4 7 8 9 10 11 12 14 15", "mean fluorescence intensity": "169 a.u."}
{"Modification": "2'F-ANA at 1 4 6 7 9 12 13 14", "mean fluorescence intensity": "51.8 a.u."}
{"Modification": "2'F-ANA at 1 2 3 6 10 13 14", "mean fluorescence intensity": "54.3 a.u."}
{"Modification": "2'F-ANA at 2 4 6 8 10 15", "mean fluorescence intensity": "87.8 a.u."}
{"note": "For quick reference, copied from above (study 4):"}
{"Modification": "2'F-ANA at 2 3 7 8 9 10 11 12 13 14 15", "mean fluorescence intensity": "238 a.u."}
{"Modification": "2'F-ANA at 3 4 5 8 9 10 13 14 15", "mean fluorescence intensity": "59.6 a.u."}
{"Modification": "2'F-ANA at 1 2 3 7 8 9 11 12", "mean fluorescence intensity": "430 a.u."}
{"Modification": "2'F-ANA at 5 6 7 9 10 11 13 14 15", "mean fluorescence intensity": "49.5 a.u."}
{"Modification": "2'F-ANA at 5 10 11 12 13 14", "mean fluorescence intensity": "48.9 a.u."}
